Measurements from different studies.
Compare with care: the assays were run in different laboratories. Numbers after ± are the reported error.

Compound | assay | system | setting | half-life [min]
NC(=O)c1cnc2[nH]ccc2c1N[C@@H]1[C@@H]2CC3C[C@H]1C[C@@](O)(C3)C2 | – | healthy Caucasian men, plasma | oral, 20 mg, single dose fasted | 438
CC(C)C[C@H](N)C(=O)OC[C@H]1O[C@@H](n2cc(F)c(=O)[nH]c2=O)C[C@@H]1O | – | human small intestine homogenate | pH 7.4, 37 °C, protein 1000 µg/mL | 13.3 ± 2.5
O=C1CC(=O)N(CCc2ccccc2)C(=O)N1CCc1ccccc1 | – | human liver microsomes | – | 64
COc1cc(C(=O)c2cccc(-c3ccc(C)c(O)c3)n2)cc(OC)c1OC | – | human liver microsomes | 10 µM, pH 7.4, together with: NADPH | < 10
[2H]c1c(C([2H])([2H])[2H])cn2c(C(=O)NC([2H])([2H])c3ccc(C(F)(F)F)cc3)c(C([2H])([2H])[2H])nc2c1[2H] | – | mouse liver microsomes | 2 µM | 18
CCc1cc2c(cc1N1CCC(N3CCOCC3)CC1)C(C)(C)c1[nH]c3cc(C#N)ccc3c1C2=O | – | severe hepatic impairment patients, plasma, total | oral, 300 mg single dose, fed | 2420
CS(=O)(=O)n1cc2c(n1)CN([C@H]1CO[C@H](c3cc(F)ccc3F)[C@@H](N)C1)C2 | – | healthy Japanese men, plasma | oral, 1 mg once weekly, day 15 | 8690
CCOc1cc([C@@H](CS(C)(=O)=O)N2C(=O)c3cccc(NC(C)=O)c3C2=O)ccc1O[C@@H]1O[C@H](C(=O)O)[C@@H](O)[C@H](O)[C@H]1O | – | mild renal impairment patients, plasma | oral, 30 mg of apremilast | 871
CCCCCCCCC(=O)N[C@H]1CNC1=O | – | PBS, 10% MeCN | 1 µM, pH 7.4, 37 °C | > 1440
NC(=O)c1cnc2[nH]ccc2c1N[C@@H]1[C@@H]2CC3C[C@H]1C[C@@](O)(C3)C2 | – | Japanese, mild hepatic impairment, plasma | oral, 150 mg single dose, mean | 822
C[C@@H](Oc1ccc(S(C)(=O)=O)cc1C(=O)N1C[C@@H]2C[C@]2(c2cc(C(F)(F)F)on2)C1)C(F)(F)F | – | healthy male volunteers, plasma | oral, 25 mg, geometric mean, together with: itraconazole | 13300
CC[C@H](C)[C@H](NC(=O)[C@H](CCC(=O)O)NC(=O)[C@H](CO)NC(=O)[C@@H](NC(=O)[C@@H](N)CO)C(C)C)C(=O)N[C@@H](CCC(N)=O)C(=O)N[C@@H](CC(C)C)C(=O)N[C@@H](CCSC)C(=O)N[C@@H](Cc1cnc[nH]1)C(=O)N[C@@H](CC(N)=O)C(=O)N[C@@H](CC(C)C)C(=O)NCC(=O)N[C@@H](CCCCN)C(=O)N[C@@H](Cc1cnc[nH]1)C(=O)N[C@@H](CC(C)C)C(=O)N[C@@H](CC(N)=O)C(=O)N[C@@H](CO)C(=O)N[C@@H](CCSC)C(=O)N[C@@H](CCC(=O)O)C(=O)N[C@@H](CCCN=C(N)N)C(=O)N[C@H](C(=O)N[C@@H](CCC(=O)O)C(=O)N[C@@H](Cc1c[nH]c2ccccc12)C(=O)N[C@@H](CC(C)C)C(=O)N[C@@H](CCCN=C(N)N)C(=O)N[C@@H](CCCCN)C(=O)N[C@@H](CCCCN)C(=O)N[C@@H](CC(C)C)C(=O)N[C@@H](CCC(N)=O)C(=O)N[C@@H](CC(=O)O)C(=O)N[C@H](C(=O)N[C@@H](Cc1cnc[nH]1)C(=O)N[C@@H](CC(N)=O)C(=O)N[C@@H](Cc1ccccc1)C(=O)O)C(C)C)C(C)C | – | postmenopausal osteoporotic women, serum | subcutaneous, 20 µg once daily | 60
C[C@]12C=CC(=O)C=C1CC[C@@H]1[C@@H]2[C@@H](O)C[C@@]2(C)[C@H]1C[C@H]1O[C@@H](C3CCCCC3)O[C@]12C(=O)CO | – | children with asthma, serum | inhaled, 80 µg ciclesonide, day 7, HFA-MDI with spacer, mixed distribution-elimination phase | 107 ± 6.6
COc1cc(OC)c(/C=C/S(=O)(=O)Cc2ccc(OC)c(NCC(=O)O)c2)c(OC)c1 | – | cancer patients, phase I, plasma | oral, 140 mg twice daily, day 1 cycle 1 | 1290 ± 2180
CC(C)(CC(=O)N1CCCC1)NCC(=O)N1C[C@@H](F)C[C@H]1C#N | – | Chinese type 2 diabetes patients, plasma | oral, 50, 100, 200 mg, single dose, range of group means | 300 to 738
CC(C)(c1ccc(O)cc1)c1ccc(O)cc1 | GC-MS | exposure tank water with snails, reconstituted water | 1000 ng/L nominal, 20 °C | 220
COc1cc2c3c(n(CCCN4CCOCC4)c(=O)c2cc1OC)-c1cc2c(cc1C3=O)OCO2 | – | patients, weekly schedule, plasma | intravenous, all dose levels | 4140
COc1ccc2c3c1O[C@H]1C[C@@H](OC(=O)c4ccccc4)C=C[C@@]31CCN(C)C2 | – | healthy elderly men, plasma | intranasal, 22 mg, single dose | 158
Nc1nc(NC2CC2)c2ncn([C@H]3C=C[C@@H](CO)C3)c2n1 | – | HIV-infected children and adolescents, plasma | oral, 8 mg/kg | 78
CC#CC(=O)N1CCC[C@H]1c1nc(-c2ccc(C(=O)Nc3ccccn3)cc2)c2c(N)nccn12 | – | Japanese patients, plasma | oral, 100 mg single dose, fasting, arithmetic mean | 562 ± 748
CCCCCCNC(=O)n1ccc(=O)[nH]c1=O | – | mouse plasma | 0.1 mM, 37 °C | 3.5

Compound | assay | system | setting | half-life [min]
N[C@@H](Cc1ccccc1)C(=O)N[C@@H](Cc1ccc(O)cc1)C(=O)OC[C@H]1O[C@@H](n2cc(F)c(=O)[nH]c2=O)C[C@@H]1O | – | human small intestine homogenate | pH 7.4, 37 °C, protein 1000 µg/mL | 113 ± 53
Cc1ccc(NC(=O)c2ccc(CN3CCN(C)CC3)cc2)cc1Nc1nccc(-c2cncc(-c3oncc3C)c2)n1 | – | healthy volunteers, plasma | oral, 25.0 mg once daily, day 7, 7-day dosing, mean | 1670
O=C(CCc1ccccc1)N[C@H]1COC1=O | – | phosphate buffer, 10% MeCN | 1 µM, pH 5.0, 37 °C | 45
N[C@@H](Cc1c[nH]cn1)C(=O)N[C@@H](Cc1c[nH]c2ccccc12)C(=O)O | – | mouse plasma | 500 ng/mL, up to 4 h, 37 °C | > 300
CC(C)C[C@H](NC(=O)[C@H](CO)NC(=O)[C@H](CO)NC(=O)[C@H](CC(C)C)NC(=O)[C@@H](NC(=O)[C@@H]1CCCN1C(=O)[C@H](Cc1c[nH]c2ccccc12)NC(=O)[C@H](Cc1ccc(O)cc1)NC(=O)[C@@H]1CCCN1C(=O)[C@H](CC(C)C)NC(=O)[C@H](Cc1ccc(O)cc1)NC(=O)[C@@H](N)CCCCN)C(C)C)C(=O)O | residual EphA4 binding inhibition | C2C12 conditioned medium | 100 µM, 37 °C | 480 to 720
CCC(CC)COC(=O)[C@H](C)N[P@](=O)(OC[C@H]1O[C@@](C#N)(c2ccc3c(N)ncnn23)[C@H](O)[C@@H]1O)Oc1ccccc1 | – | CD-1 mouse liver microsomes | 1 µM, pH 7.4, together with: NADPH | ~1
COc1ccc2[nH]c([S+]([O-])Cc3ncc(C)c(OC)c3C)nc2c1 (centres unmarked) | – | healthy Chinese, CYP2C19 poor metabolizers, plasma | oral, 20 mg single dose | 151 ± 47.4
N[C@@H](CC(=O)O)C(=O)OC(C(=O)O)c1ccccc1[N+](=O)[O-].O=C(O)C(F)(F)F (mixture of isomers) | hydrolysis, 1H NMR | aqueous sodium phosphate, 12.5% DMSO-d6 | pH 7, dark, less stable diastereomer | 834 ± 12
CN(C(=O)[C@H](Cc1ccccc1)NC(=O)CNC(=O)c1ccccc1)c1ccc(Cl)cc1 | – | mouse liver microsomes | 1 µM, pH 7.4, together with: cobicistat 0.5 µM | 52
COc1ccc(F)cc1CCC1CCC(CCNCCCCCN2N=C(c3ccc(OC)c(OC)c3)[C@H]3CC=CC[C@H]3C2=O)O1 (some centres unmarked) | – | human liver microsomes | 40 µM, pH 7.4, 37 °C, together with: NADPH | > 60
O=C(NO)c1cc(F)cc(OS(=O)(=O)Oc2ccccc2)c1 | – | buffer with or without glutathione | 50 µM, pH 7.4, 37 °C, together with: glutathione 2 mM | > 1200
Cc1cn(CC(=O)N[C@@H](Cc2ccccc2)C(=O)N(C)c2ccc(Cl)cc2)c(=O)[nH]c1=O | – | mouse liver microsomes | 1 µM, pH 7.4, together with: cobicistat 0.5 µM | > 120
CNCCC(Oc1ccc(C(F)(F)F)cc1)c1ccccc1 (centres unmarked) | – | whole body | oral, high dose, depuration phase | 14400
CCOc1ccc(Cc2cc([C@@H]3S[C@H](CO)[C@@H](O)[C@H](O)[C@H]3O)c(OC)cc2C)cc1 | – | Japanese type 2 diabetes patients, plasma | oral, 5 mg single dose, eGFR 30-44 mL/min/1.73 m^2 | 660 ± 89.4
CC(C)[C@H](N)C(=O)OC[C@H]1O[C@@H](n2cc(F)c(=O)[nH]c2=O)C[C@@H]1O | – | human pancreas homogenate | pH 7.4, 37 °C, protein 500 µg/mL | 42.7 ± 0.3
COc1ccc([C@@H]2Sc3ccccc3N(CCN(C)C)C(=O)[C@@H]2OC(C)=O)cc1 | – | whole body | oral, medium dose, depuration phase | 17600
CC[C@H](C)[C@H](N)C(=O)OC[C@H]1O[C@@H](n2cc(F)c(=O)[nH]c2=O)C[C@@H]1O | – | human pancreas homogenate | pH 7.4, 37 °C, protein 500 µg/mL | 65.9 ± 7.2
CN1C(=O)[C@@H](NC(=O)c2nnc(Cc3ccccc3)[nH]2)COc2ccccc21 | – | healthy men, plasma | oral, 20 mg once daily, day 14, geometric mean | 227
N[C@@H](Cc1ccccc1)C(=O)OC[C@H]1O[C@@H](n2cc(F)c(=O)[nH]c2=O)C[C@@H]1O | – | human small intestine homogenate | pH 7.4, 37 °C, protein 1000 µg/mL | 4.8 ± 1.4
CCN(C(=O)[C@H](Cc1ccccc1)NC(=O)CNC(=O)c1ccccc1)c1ccccc1 | – | mouse liver microsomes | 1 µM, pH 7.4, together with: cobicistat 0.5 µM | 28

Repeated from above:
Compound | assay | system | setting | half-life [min]
N[C@@H](Cc1c[nH]cn1)C(=O)N[C@@H](Cc1c[nH]c2ccccc12)C(=O)O | – | mouse plasma | 500 ng/mL, up to 4 h, 37 °C | > 300
CC(C)C[C@H](NC(=O)[C@H](CO)NC(=O)[C@H](CO)NC(=O)[C@H](CC(C)C)NC(=O)[C@@H](NC(=O)[C@@H]1CCCN1C(=O)[C@H](Cc1c[nH]c2ccccc12)NC(=O)[C@H](Cc1ccc(O)cc1)NC(=O)[C@@H]1CCCN1C(=O)[C@H](CC(C)C)NC(=O)[C@H](Cc1ccc(O)cc1)NC(=O)[C@@H](N)CCCCN)C(C)C)C(=O)O | residual EphA4 binding inhibition | C2C12 conditioned medium | 100 µM, 37 °C | 480 to 720
CCC(CC)COC(=O)[C@H](C)N[P@](=O)(OC[C@H]1O[C@@](C#N)(c2ccc3c(N)ncnn23)[C@H](O)[C@@H]1O)Oc1ccccc1 | – | CD-1 mouse liver microsomes | 1 µM, pH 7.4, together with: NADPH | ~1
COc1ccc2[nH]c([S+]([O-])Cc3ncc(C)c(OC)c3C)nc2c1 (centres unmarked) | – | healthy Chinese, CYP2C19 poor metabolizers, plasma | oral, 20 mg single dose | 151 ± 47.4
N[C@@H](CC(=O)O)C(=O)OC(C(=O)O)c1ccccc1[N+](=O)[O-].O=C(O)C(F)(F)F (mixture of isomers) | hydrolysis, 1H NMR | aqueous sodium phosphate, 12.5% DMSO-d6 | pH 7, dark, less stable diastereomer | 834 ± 12
CN(C(=O)[C@H](Cc1ccccc1)NC(=O)CNC(=O)c1ccccc1)c1ccc(Cl)cc1 | – | mouse liver microsomes | 1 µM, pH 7.4, together with: cobicistat 0.5 µM | 52
COc1ccc(F)cc1CCC1CCC(CCNCCCCCN2N=C(c3ccc(OC)c(OC)c3)[C@H]3CC=CC[C@H]3C2=O)O1 (some centres unmarked) | – | human liver microsomes | 40 µM, pH 7.4, 37 °C, together with: NADPH | > 60
